Measured values gathered from unrelated publications.
Each numbered part is a random draw from the data of one study; scales do not carry over between parts.

Block 1 — method: aptamer microarray, sandwich; form: DNA with 2'F-ANA; medium: in vitro; tested at: 200 nM; with: Cy3 exosite-II aptamer, 400 nM; reading: higher = stronger binding
Target: Prothrombin, mature alpha-thrombin (F2, Homo sapiens, UniProt P00734)
Notes: whole 15-mer aptamer, many near background
| Oligonucleotide | mean fluorescence intensity [a.u.] |
| --- | --- |
| GGTTGGTGTGGTTGG (2'F-ANA at 2 3 4 7 9 14 15) | 250 |
| GGTTGGTGTGGTTGG (2'F-ANA at 1 7 8 10 11 15) | 55 |
| GGTTGGTGTGGTTGG (2'F-ANA at 1 2 3 5 6 7 11 12) | 83.3 |
| GGTTGGTGTGGTTGG (2'F-ANA at 1 2 3 7 10 11 13) | 62.5 |

Block 2 — method: protein binding microarray; form: double-stranded DNA, one strand shown; medium: in vitro; tested at: not given; reference: not given; reading: higher = stronger binding
Target: Histone acetyltransferase KAT6A, winged helix 2, GST fusion (KAT6A, Homo sapiens, UniProt Q92794, residues 85-181)
Notes: 8-mer, flanks averaged, mean of 2 arrays, mostly near background
Target sequence (chain): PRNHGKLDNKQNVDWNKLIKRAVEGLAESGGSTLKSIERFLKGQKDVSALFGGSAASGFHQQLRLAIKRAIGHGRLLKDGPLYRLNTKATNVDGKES
| Oligonucleotide | E-score |
| --- | --- |
| CCGTGGAG | 0.0842 |
| CAGAAAGC | -0.0853 |
| AGCACAAG | -0.0879 |
| GTAGGTAA | -0.167 |

Block 3 — target: Sox, HMG box (Pigoraptor chileana); method: Spec-seq; form: double-stranded DNA, one strand shown; medium: in vitro; tested at: not given; notes: whole probe, mean of replicates; reference: not given; reading: lower = stronger binding
Constant ends, left off below: GAGTCGTCTCGTCAGCAC … GTTCCGTAGAGCACTCAGGTC
Target sequence (chain): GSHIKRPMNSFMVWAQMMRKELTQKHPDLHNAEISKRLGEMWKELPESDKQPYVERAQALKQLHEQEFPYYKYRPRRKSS
| Oligonucleotide | relative binding energy |
| --- | --- |
| CGAG | 1.29 ln ratio |
| AAAC | -1.41 ln ratio |
| AGGT | 0.0793 ln ratio |
| AGCG | 0.125 ln ratio |
| CAAG | 1.06 ln ratio |
| CTAA | 0.673 ln ratio |

Mixed results
| Substance | target | assay | system | conditions | scale | quantity | result |
| --- | --- | --- | --- | --- | --- | --- | --- |
| PhoQ, residues 284 288 289 292 302 303 TTCLQL | PhoP, residues 12 14 15 18 19 AQCLL (Escherichia coli, UniProt P23836) | Sort-seq, measured: YFP reporter | E. coli | PhoQ-PhoP variant library, with: 10 µM Mg2+ | reference: high Mg2+ state, higher = stronger signaling | fold induction | 2.29 |

A few entries again (block 3):
| Oligonucleotide | relative binding energy |
| --- | --- |
| CGAG | 1.29 ln ratio |
| AAAC | -1.41 ln ratio |
